# Measured values gathered from unrelated publications.
# Lines come from different studies, so protocols differ.
SMILES,assay,test system,conditions,CL/F
C#C[C@]1(CO)O[C@@H](n2cnc3c(N)nc(F)nc32)C[C@@H]1O,,"human, fed, plasma","oral, 30 mg, geometric mean",24.3 L/h
Cc1ncnc2c1ccn2[C@@H]1C[C@H](Oc2cc(C(F)F)c(F)c3c2CNCC3)[C@@H](O)[C@H]1O,,"human, plasma",0.5 mg once daily,12.4 L/h
CC1(COc2ccc3c(c2)ncn3-c2ccc3cccc(N4CCC(N)CC4)c3n2)COC1,,"human patients, recurrent/progressive HGG or DIPG, serum","oral, 130 mg/m^2, day 28, median",36.4 L/h/m²
C[C@H](Oc1ccc(Br)cc1-c1ccon1)C(=O)O,,"healthy male humans, plasma","oral, 400 mg once daily, day 10",4.79 L/h
O=C(O)CCC(=O)O.[2H]C([2H])([2H])Oc1cc(C)c2[nH]ccc2c1CN1CC[C@@H](C2CC2)C[C@H]1c1ccc(C(=O)O)cc1,"LC-MS/MS, mean","human, plasma","400 mg, single dose, fasting",2.71 L/h
Cn1c(=O)oc2ccc(-c3ccc(C[C@@H](C#N)NC(=O)[C@@H]4CNCCCO4)cc3)cc21,,"human, plasma","oral, 25 mg single dose, range over normal, mild, moderate groups",6.09 to 7.72 L/h
C=CC(=O)NC1CCN(c2ncc3ncnc(Nc4ccc(Oc5ccc6c(c5)ncn6C)c(C)c4)c3n2)CC1,,"human, plasma","oral, 240 mg single dose, fasted, geometric mean",9.42 L/h
CNC(=O)n1ccc2cc(Oc3ccnc(NC(=O)c4ccc(C5CCN(CCO)CC5)cc4)c3)c(OCCOC)cc21,,healthy human,"oral, 35 mg, high-fat meal, geometric mean",349 L/h
Cn1cc(-c2cn3nccc3c(-c3cnn([C@]4(CC#N)C[C@@H](C#N)C4)c3)n2)cn1,,"healthy human, plasma","100 mg once daily, day 10, multiple dose, fed, geometric mean",51.3 L/h
CN1C(=O)[C@@H](NC(=O)c2nnc(Cc3ccccc3)[nH]2)COc2cccnc21,,"healthy human, fasted, plasma","oral, 200 mg single dose, geometric mean",6.24 L/h
C[C@@H](Oc1ccc(S(C)(=O)=O)cc1C(=O)N1C[C@@H]2C[C@]2(c2cc(C(F)(F)F)on2)C1)C(F)(F)F,,"elderly humans, plasma","25 mg once daily, single dose, geometric mean",4.19 L/h
CCn1cc(C(=O)N2CCOCC2)c(=O)c2cc(NC3Cc4ccccc4C3)cnc21,,"human overall, fed, plasma","oral, 900 mg twice daily, day 1, tablet, arithmetic mean",27.8 L/h
C#Cc1cccc(Nc2ncnc3cc(OCCOC)c(OCCOC)cc23)c1,,human,100 mg,~8 L/h
Cn1cncc1[C@@](N)(c1ccc(Cl)cc1)c1ccc2c(c1)c(-c1cccc(Cl)c1)cc(=O)n2C,,"human, plasma","oral, median, across dose levels",630 mL/min/m²
CC1(C)CC[C@]2(NC(=O)C(C)(F)F)CC[C@]3(C)[C@H](C(=O)C=C4[C@@]5(C)C=C(C#N)C(=O)C(C)(C)[C@@H]5CC[C@]43C)[C@@H]2C1,,human,"mean, with: efavirenz once daily",224 L/h
CCN1CCN(Cc2ccc(Nc3ncc(F)c(-c4cc(F)c5nc(C)n(C(C)C)c5c4)n3)nc2)CC1,,fasted healthy human subjects,"oral, 200 mg, 2 × 100 mg capsules",50.8 L/h
Cn1nnc2c(C(N)=O)ncn2c1=O,,"human patients, plasma","oral, 20 mg/m2, day 5, dose level DL3, median, with: talazoparib 600 µg/m2",12.3 L/h/m2

# Excerpt of the above:
SMILES,assay,test system,conditions,CL/F
C#C[C@]1(CO)O[C@@H](n2cnc3c(N)nc(F)nc32)C[C@@H]1O,,"human, fed, plasma","oral, 30 mg, geometric mean",24.3 L/h
Cc1ncnc2c1ccn2[C@@H]1C[C@H](Oc2cc(C(F)F)c(F)c3c2CNCC3)[C@@H](O)[C@H]1O,,"human, plasma",0.5 mg once daily,12.4 L/h
